# Experimental data gathered from unrelated publications.
# Lines come from different studies, so protocols differ. “And” joins repeats or separate records; there may be more than shown. Numbers after ± are the reported error.
# NR4A1: Nuclear receptor subfamily 4 group A member 1 (NR4A1, Homo sapiens, UniProt P22736)
# UniProt P22736, sequence (whole entry, looked up): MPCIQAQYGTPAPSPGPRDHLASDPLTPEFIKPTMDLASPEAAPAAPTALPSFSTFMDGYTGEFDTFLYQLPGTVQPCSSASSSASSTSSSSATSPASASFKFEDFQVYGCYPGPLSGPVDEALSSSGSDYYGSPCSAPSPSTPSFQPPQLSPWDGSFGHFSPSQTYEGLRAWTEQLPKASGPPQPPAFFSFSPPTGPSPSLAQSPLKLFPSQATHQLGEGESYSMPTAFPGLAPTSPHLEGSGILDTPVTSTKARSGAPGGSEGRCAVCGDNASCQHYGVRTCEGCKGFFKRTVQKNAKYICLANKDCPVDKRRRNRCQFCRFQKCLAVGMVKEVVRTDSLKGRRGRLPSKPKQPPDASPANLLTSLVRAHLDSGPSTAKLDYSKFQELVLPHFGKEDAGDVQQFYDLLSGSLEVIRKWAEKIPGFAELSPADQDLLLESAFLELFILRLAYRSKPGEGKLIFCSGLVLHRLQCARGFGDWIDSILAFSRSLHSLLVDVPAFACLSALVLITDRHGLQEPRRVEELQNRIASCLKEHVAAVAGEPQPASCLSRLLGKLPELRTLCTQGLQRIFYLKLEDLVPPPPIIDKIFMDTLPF
# T1: ssDNA, aptamer; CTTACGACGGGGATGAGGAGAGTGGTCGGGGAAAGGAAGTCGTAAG
# T2: ssDNA, aptamer; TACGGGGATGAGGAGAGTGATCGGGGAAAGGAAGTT
# UniProt Q8NER1, sequence (whole entry, looked up): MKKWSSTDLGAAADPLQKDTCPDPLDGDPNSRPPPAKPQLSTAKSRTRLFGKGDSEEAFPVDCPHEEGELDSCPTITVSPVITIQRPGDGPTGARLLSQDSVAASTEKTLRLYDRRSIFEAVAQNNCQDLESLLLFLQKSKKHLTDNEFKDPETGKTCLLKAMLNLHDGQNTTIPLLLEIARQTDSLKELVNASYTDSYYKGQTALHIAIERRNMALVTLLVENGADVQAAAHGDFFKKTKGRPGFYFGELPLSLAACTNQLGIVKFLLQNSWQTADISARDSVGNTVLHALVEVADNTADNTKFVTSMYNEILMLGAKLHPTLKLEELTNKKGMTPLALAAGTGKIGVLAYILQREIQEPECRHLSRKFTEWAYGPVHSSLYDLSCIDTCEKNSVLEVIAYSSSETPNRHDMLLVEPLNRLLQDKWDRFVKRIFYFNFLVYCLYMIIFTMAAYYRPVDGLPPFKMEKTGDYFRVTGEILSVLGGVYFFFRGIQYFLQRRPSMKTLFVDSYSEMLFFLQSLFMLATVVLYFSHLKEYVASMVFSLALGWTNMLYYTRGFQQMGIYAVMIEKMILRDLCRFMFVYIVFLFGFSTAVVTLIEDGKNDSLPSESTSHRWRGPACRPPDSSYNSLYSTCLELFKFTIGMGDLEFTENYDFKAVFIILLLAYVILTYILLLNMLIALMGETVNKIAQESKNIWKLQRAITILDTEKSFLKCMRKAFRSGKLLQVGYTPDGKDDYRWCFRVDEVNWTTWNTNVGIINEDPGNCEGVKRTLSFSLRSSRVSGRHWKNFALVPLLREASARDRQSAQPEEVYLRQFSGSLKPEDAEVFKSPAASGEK
# UniProt Q16774, sequence (whole entry, looked up): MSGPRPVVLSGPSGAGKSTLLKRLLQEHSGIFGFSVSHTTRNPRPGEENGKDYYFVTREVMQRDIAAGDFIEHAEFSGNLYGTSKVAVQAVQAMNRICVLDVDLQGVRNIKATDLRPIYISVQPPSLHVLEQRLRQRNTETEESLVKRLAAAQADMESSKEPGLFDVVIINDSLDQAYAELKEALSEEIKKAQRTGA
# UniProt Q80VM9, sequence (whole entry, looked up): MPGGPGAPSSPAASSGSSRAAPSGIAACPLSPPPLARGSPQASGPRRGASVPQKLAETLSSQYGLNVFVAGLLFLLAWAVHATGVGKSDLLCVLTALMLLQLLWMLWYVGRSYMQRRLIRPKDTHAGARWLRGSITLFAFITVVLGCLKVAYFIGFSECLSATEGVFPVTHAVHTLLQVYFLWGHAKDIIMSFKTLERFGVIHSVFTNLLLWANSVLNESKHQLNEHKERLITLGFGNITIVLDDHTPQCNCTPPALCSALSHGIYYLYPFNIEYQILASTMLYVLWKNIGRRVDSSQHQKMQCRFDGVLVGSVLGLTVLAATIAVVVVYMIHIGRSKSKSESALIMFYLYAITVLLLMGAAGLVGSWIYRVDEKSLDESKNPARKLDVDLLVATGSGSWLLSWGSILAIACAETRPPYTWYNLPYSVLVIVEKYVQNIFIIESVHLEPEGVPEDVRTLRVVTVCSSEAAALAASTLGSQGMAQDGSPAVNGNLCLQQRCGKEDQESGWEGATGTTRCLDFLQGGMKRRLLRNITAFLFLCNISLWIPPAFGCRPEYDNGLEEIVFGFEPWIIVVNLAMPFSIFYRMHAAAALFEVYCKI
# UniProt Q96SW2, sequence (whole entry, looked up): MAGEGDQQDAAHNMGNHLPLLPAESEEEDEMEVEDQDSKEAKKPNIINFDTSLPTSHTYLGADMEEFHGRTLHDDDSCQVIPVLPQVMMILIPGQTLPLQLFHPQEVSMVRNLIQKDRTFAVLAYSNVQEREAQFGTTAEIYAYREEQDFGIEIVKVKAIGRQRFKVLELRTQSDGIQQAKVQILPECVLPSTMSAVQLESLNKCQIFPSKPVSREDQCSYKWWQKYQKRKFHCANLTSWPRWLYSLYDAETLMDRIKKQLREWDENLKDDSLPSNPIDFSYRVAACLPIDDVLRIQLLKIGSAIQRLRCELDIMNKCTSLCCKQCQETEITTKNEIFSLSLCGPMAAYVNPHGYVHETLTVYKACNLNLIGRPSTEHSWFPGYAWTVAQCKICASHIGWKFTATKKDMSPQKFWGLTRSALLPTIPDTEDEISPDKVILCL
# UniProt Q15059, sequence (whole entry, looked up): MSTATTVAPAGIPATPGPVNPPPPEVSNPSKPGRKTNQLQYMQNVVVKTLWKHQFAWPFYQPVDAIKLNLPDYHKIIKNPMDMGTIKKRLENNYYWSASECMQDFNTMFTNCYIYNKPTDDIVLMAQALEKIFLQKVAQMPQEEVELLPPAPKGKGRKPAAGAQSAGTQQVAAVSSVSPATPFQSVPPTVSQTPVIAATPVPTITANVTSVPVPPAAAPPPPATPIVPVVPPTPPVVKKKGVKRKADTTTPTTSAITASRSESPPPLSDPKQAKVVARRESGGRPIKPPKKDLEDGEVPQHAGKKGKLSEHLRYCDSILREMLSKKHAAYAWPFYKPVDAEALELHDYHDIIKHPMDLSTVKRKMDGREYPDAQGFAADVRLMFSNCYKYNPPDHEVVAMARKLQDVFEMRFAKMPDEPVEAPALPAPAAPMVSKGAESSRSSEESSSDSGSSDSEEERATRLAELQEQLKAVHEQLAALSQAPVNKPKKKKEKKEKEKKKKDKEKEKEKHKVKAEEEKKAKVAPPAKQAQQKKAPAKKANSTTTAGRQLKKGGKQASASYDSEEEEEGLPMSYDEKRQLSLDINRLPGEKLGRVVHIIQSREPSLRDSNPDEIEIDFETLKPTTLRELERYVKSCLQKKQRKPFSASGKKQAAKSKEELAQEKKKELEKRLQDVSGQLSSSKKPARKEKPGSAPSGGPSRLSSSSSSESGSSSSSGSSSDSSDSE
# UniProt P41595, sequence (whole entry, looked up): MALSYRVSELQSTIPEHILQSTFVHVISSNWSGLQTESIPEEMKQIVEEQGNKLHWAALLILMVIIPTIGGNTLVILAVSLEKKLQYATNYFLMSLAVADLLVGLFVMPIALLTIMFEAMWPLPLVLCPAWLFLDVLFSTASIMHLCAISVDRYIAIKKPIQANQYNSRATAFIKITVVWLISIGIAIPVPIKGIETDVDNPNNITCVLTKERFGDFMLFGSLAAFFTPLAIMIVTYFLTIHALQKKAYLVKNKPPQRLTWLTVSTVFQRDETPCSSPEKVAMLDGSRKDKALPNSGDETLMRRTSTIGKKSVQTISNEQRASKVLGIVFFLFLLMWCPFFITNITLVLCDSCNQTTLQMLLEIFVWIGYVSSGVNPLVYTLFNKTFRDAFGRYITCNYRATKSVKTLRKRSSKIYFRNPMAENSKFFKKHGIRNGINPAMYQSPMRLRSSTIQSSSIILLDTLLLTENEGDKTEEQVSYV
# UniProt Q96EB6, sequence (whole entry, looked up): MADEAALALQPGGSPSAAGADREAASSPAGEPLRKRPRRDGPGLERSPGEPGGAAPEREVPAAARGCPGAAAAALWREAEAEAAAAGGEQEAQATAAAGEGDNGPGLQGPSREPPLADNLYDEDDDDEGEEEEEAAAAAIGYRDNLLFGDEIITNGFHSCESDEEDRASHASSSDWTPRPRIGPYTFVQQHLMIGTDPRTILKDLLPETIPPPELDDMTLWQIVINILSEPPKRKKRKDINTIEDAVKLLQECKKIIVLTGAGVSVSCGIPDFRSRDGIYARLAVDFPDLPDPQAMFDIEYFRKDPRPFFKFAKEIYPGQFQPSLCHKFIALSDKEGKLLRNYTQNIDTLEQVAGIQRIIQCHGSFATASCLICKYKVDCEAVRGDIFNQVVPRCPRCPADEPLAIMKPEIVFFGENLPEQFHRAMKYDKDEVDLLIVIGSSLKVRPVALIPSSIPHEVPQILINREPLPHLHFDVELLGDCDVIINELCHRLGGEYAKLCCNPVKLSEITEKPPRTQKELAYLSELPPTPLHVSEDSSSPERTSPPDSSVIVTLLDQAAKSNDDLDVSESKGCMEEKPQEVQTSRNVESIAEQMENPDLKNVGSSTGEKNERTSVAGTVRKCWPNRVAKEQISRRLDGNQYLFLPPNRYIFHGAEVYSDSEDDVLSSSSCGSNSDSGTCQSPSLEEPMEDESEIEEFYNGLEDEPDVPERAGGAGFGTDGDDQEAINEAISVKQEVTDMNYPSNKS
# UniProt P40337, sequence (whole entry, looked up): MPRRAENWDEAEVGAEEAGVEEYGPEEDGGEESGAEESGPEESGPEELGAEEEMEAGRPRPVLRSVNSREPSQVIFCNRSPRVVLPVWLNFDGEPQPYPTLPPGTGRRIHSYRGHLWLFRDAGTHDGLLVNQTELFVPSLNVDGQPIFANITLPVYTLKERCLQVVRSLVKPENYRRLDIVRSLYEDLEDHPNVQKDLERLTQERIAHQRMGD
Compound,target or system,test,test system,setting,how to read,endpoint,value
COc1cc(CNC(=O)CCCC/C=C/C(C)C)ccc1O,"TRPV1 (Homo sapiens, UniProt Q8NER1)","channel activation, FLIPR calcium",HEK293T,60 µM,higher = more activation,calcium response,29.3 a.u. and 28.1 a.u. and 28.8 a.u.
O=C(C=Cc1ccccc1)Nc1cccc(-c2ccnc(N3CCC(O)CC3)c2)c1,NR4A1,SPR,,10.0 µM,,binding response,71.4 RU
Nc1ncnc2c1ncn2[C@@H]1O[C@H](COP(=O)(O)OP(=O)(O)O)[C@@H](O)[C@H]1O,"T1, ssDNA, aptamer",ITC,,,,Kd,21.6 µM
Cn1cc(-c2ccc(-c3cncc(Cl)c3N3CCC4(CCNC4=O)CC3)cc2)cn1,COLO 205,"gene expression, microarray, measured: FAS mRNA",,"concentration not given, 2 h",relative to: untreated cells,log2 fold change,2.03
CCC(=O)NS(=O)(=O)c1ccc(-c2c(-c3ccccc3)noc2C)cc1,NR4A1,"reporter gene, NBRE reporter full-length",,50 µM,relative to: vehicle,activation,0.52 fold
CC(O)Cn1cnc2c1c(=O)n(C)c(=O)n2C (centres unmarked),human iPSC-derived cardiomyocytes,"MyBP-C/MYH ratio, plate-normalised SD score",,"concentration not given, primary screen",direction not given,activity score,3.2
Cc1ccc(C(=O)Nc2ccc3ccccc3c2)o1,"Otop1 (Mus musculus, UniProt Q80VM9)","ion current, whole-cell voltage ramp",,"10 µM, together with: NMDG bath solution",,reversal potential,60.5 mV and 60.6 mV and 45.8 mV and 56.1 mV and 59.9 mV and 61.9 mV
CC[C@H](C)[C@@H]1NC(=O)[C@H](C)NC(=O)[C@H]([C@@H](C)CC)NC(=O)[C@H](CCC(N)=O)NC(=O)[C@H](C)NC(=O)[C@H](CCCNC(=N)N)NC(=O)[C@H](C(C)C)NC(=O)[C@H](CC(C)C)NC(=O)[C@H](CCC(=O)O)NC(=O)[C@H](CCCNC(=N)N)NC(=O)CNC(=O)[C@@H](NC(=O)[C@H](CC(C)C)NC(=O)[C@H](CCCCN)NC(=O)[C@@H](NC(=O)[C@@H](NC(=O)[C@H](CCC(=O)O)NC(=O)[C@H](CCC(=O)O)NC(=O)[C@H](CCSC)NC(=O)[C@H](Cc2c[nH]c3ccccc23)NC(=O)[C@H](CO)NC(=O)[C@@H](N)CC(=O)O)C(C)C)[C@@H](C)CC)CSSC[C@@H]2NC(=O)[C@@H](NC(=O)[C@H](CCCCN)NC(=O)[C@H](CC(N)=O)NC(=O)[C@H](C)NC(=O)[C@H](CC(C)C)NC(=O)[C@H](C)NC(=O)[C@H](CO)NC(=O)[C@H](Cc3ccc(O)cc3)NC(=O)[C@H](CC(C)C)NC(=O)[C@H](CCC(N)=O)NC(=O)c3ccc(-c4c5ccc(=[N+](C)C)cc-5oc5cc(N(C)C)ccc45)c(C(=O)[O-])c3)CSSC[C@H](NC(=O)CNC(=O)[C@H](C(C)C)NC(=O)[C@H](Cc3c[nH]cn3)NC2=O)C(=O)N[C@@H]([C@@H](C)O)C(=O)N[C@@H](CCCCN)C(=O)N[C@@H](CCCNC(=N)N)C(=O)N[C@@H](CO)C(=O)N[C@@H](CC(C)C)C(=O)N[C@@H](C)C(=O)N[C@@H](CCCNC(=N)N)C(=O)N[C@@H](Cc2ccccc2)C(=O)N[C@H](C(=O)O)CSSC[C@@H](C(=O)NCC(=O)N[C@@H](CCSC)C(=O)N[C@@H](CO)C(=O)N[C@H](C(=O)N[C@@H](Cc2c[nH]c3ccccc23)C(=O)N[C@@H](CO)C(=O)O)[C@@H](C)O)NC1=O,"Relaxin receptor 1 (RXFP1, Homo sapiens, UniProt Q9HBX9, F76A/Y80A)",NanoBRET dissociation,,"infinite dilution, together with: 1 µM relaxin",,koff slow phase,0.000831 s⁻¹
COc1cc(/C=C2\SC(=O)NC2=O)cc(F)c1OCCNc1nc2c(cnn2C2CCCC2)c(=O)[nH]1,"PDE7A (Homo sapiens, UniProt Q13946)",,,,relative to: PDE7A over PDE9,selectivity ratio,85 fold
CC(=O)Nc1ccccc1,human iPSC-derived cardiomyocytes,"MyBP-C/MYH ratio, plate-normalised SD score",,"concentration not given, primary screen",direction not given,activity score,3
c1coc(-c2n[nH]cc2-c2ccnc3ccccc23)c1,"Serine/threonine-protein kinase CST20 (CST20, Candida albicans, UniProt P0CY24)","kinase binding, MIB/MS competition",Candida albicans lysate,1 µM,"relative to: DMSO, negative = stronger binding",log2 fold change,-1.02
CC(=O)N[C@H]1[C@@H](OC(C)C(N)C(=O)O)O[C@H](CO[C@]2(C(=O)O)C[C@H](O)[C@@H](NC(C)=O)[C@H]([C@H](O)[C@H](O)CO)O2)[C@H](O)[C@@H]1O (some centres unmarked),"CLEC10A, carbohydrate recognition domain (Homo sapiens, UniProt Q8IUN9)","binding to carbohydrate recognition domain, isothermal titration calorimetry",,293 K,,-TΔS,6 ± 1 kcal/mol
Cc1ccc(OC[C@H]2CN(CCN3CCc4ccccc43)CCO2)cn1,"HTR2B (Homo sapiens, UniProt P41595)",radioligand binding,,"concentration not given, together with: [3H]LSD",,inhibition,23.3%
CC[C@@H]1[C@H](F)C(=O)N[C@@H]1COc1nccc2cc(C(N)=O)c(OC)cc12,"PRPF4B (Homo sapiens, UniProt Q13523)","ATP-site probe binding, ActivX profiling",THP-1 cell lysate,"0.2 mM, Lys2 site",,inhibition,28.3%
[H]/N=C(/N)NCC(=O)O,"SLC6A6 (Homo sapiens, UniProt P31641, Y138A)","binding, microscale thermophoresis",,"500 µM, room temperature, together with: 50 nM labelled protein",higher = more binding,normalised MST signal,0.013
O=C(Nc1cccc2c(=O)cc(-c3nnn[nH]3)oc12)c1ccc(OCCCCc2ccccc2)cc1,"LRRC8A/LRRC8C (Homo sapiens, UniProt Q8IWT6+Q8TDW0, E6A)","VRAC current, inhibitor, whole-cell patch clamp",HCT116 LRRC8-/- cells,10 µM,,inhibition,88.5%
COCCOCc1ccc(-c2cc3onc(-c4ccccc4)c3c(=O)n2C)cc1,NR4A1,"reporter gene, Gal4 hybrid reporter",,1 µM,relative to: vehicle,activation,1.18 ± 0.15 fold
Cc1cc(Nc2cc(N3CCN(C)CC3)nc(Sc3ccc(NC(=O)C4CC4)cc3)n2)[nH]n1,"MINK1 (Homo sapiens, UniProt Q8N4C8)","kinase activity, KinaseProfiler",,"0.03 µM, species human",relative to: control,remaining activity,84%
O=S(=O)(O)O,"GUK1 (Homo sapiens, UniProt Q16774)","enzyme activity, NADH-coupled",,"5 mM, together with: ATP 1000 µM",,reaction velocity,0.108 µM/s and 0.104 µM/s and 0.0813 µM/s
Cc1ccc(C(=O)Nc2ccc3c(c2)C(=O)N(C2CCC(=O)NC2=O)C3=O)cc1 (centres unmarked),"Cereblon/Casein kinase I alpha (CSNK1A1/CRBN, Homo sapiens, UniProt P48729+Q96SW2)","degrader, live-cell HiBiT kinetic",HEK293 LgBiT,10 µM,,degradation rate constant,0.61 h⁻¹
C[C@H]1O[C@@H](O[C@H]2CC[C@@]3(C)[C@@H](CC[C@]4(C)[C@@H]3C=C[C@]35OC[C@@]6(CCC(C)(C)C[C@H]63)[C@@H](O)C[C@]54C)[C@]2(C)CO)[C@H](O)[C@@H](O[C@@H]2O[C@H](CO)[C@@H](O)[C@H](O)[C@H]2O)[C@H]1O,"SIRT1 (Homo sapiens, UniProt Q96EB6)","binding, microscale thermophoresis",,140 nM,,MST normalised fluorescence,885 a.u.
Nc1ncnc2c1ncn2[C@H]1C[C@H](O)[C@@H](COP(=O)(O)OP(=O)(O)OP(=O)(O)O)O1,"T2, ssDNA, aptamer",molecular beacon fluorescence quenching,,,,Kd,2.6 µM
CC(=O)N[C@H](C(=O)N1C[C@H](O)C[C@H]1C(=O)NCc1ccc(-c2scnc2C)cc1)C(C)(C)SCCCCCCNC(=O)C[C@@H]1N=C(c2ccc(Cl)cc2)c2c(sc(C)c2C)-n2c(C)nnc21,"VHL/BRD3, BD2; with Elongin B/C (Homo sapiens, UniProt P40337+Q15059)",ITC,,"25 °C, PROTAC:Brd3^BD2",relative to: Kd binary over Kd ternary,cooperativity,4.3

# Some of these lines once more:
Compound,target or system,test,test system,setting,how to read,endpoint,value
O=C(C=Cc1ccccc1)Nc1cccc(-c2ccnc(N3CCC(O)CC3)c2)c1,NR4A1,SPR,,10.0 µM,,binding response,71.4 RU
Nc1ncnc2c1ncn2[C@@H]1O[C@H](COP(=O)(O)OP(=O)(O)O)[C@@H](O)[C@H]1O,"T1, ssDNA, aptamer",ITC,,,,Kd,21.6 µM
Cn1cc(-c2ccc(-c3cncc(Cl)c3N3CCC4(CCNC4=O)CC3)cc2)cn1,COLO 205,"gene expression, microarray, measured: FAS mRNA",,"concentration not given, 2 h",relative to: untreated cells,log2 fold change,2.03
CCC(=O)NS(=O)(=O)c1ccc(-c2c(-c3ccccc3)noc2C)cc1,NR4A1,"reporter gene, NBRE reporter full-length",,50 µM,relative to: vehicle,activation,0.52 fold
